Measurements of several laboratories.
Lines come from different studies, so protocols differ. ± marks the error that the study gave.

| SMILES | assay | system | setting | scale | endpoint | value |
| --- | --- | --- | --- | --- | --- | --- |
| COc1cc2c(cc1OC)CN(CCc1ccc(NC(=O)c3cc(OC)c(OC)cc3NC(=O)c3cnc4ccccc4c3)cc1)CC2 |  | human, plasma | intravenous infusion, 8 mg/kg, up to 24 h after infusion end |  | AUC | 23600 ng·h/mL |
| Nc1nc(NC2CC2)c2ncn([C@H]3C=C[C@@H](CO)C3)c2n1 |  | HIV-infected children and adolescents, plasma | oral, 8 mg/kg, 0 to 8 h |  | AUC | 8400 ng·h/mL |
| CO[C@H]1C[C@@H]2CC[C@@H](C)[C@@](O)(O2)C(=O)C(=O)N2CCCC[C@H]2C(=O)O[C@H]([C@H](C)C[C@@H]2CC[C@@H](OCCO)[C@H](OC)C2)CC(=O)[C@H](C)/C=C(\C)[C@@H](O)[C@@H](OC)C(=O)[C@H](C)C[C@H](C)/C=C/C=C/C=C/1C | HPLC-MS/MS | responder patients, whole blood | dose not given, cycle 1 day 15 | reference: partial or non-responders | AUC at steady state | increased |
| CC(C)(CO)c1cc2cc(NC(=O)C3(c4ccc5c(c4)OC(F)(F)O5)CC3)c(F)cc2n1C[C@@H](O)CO |  | healthy subjects, plasma | oral, 25 mg once daily, together with: ivacaftor 50 mg, itraconazole 200 mg | reference: with over without itraconazole | AUC ratio | 4.02 |
| CN1CCN(c2ccc3nc(-c4c(N)c5c(F)cccc5[nH]c4=O)[nH]c3c2)CC1 |  | patients, plasma | oral, 300 mg, day 1, AUC 0-24 h maximum concurrent dosing, together with: gemcitabine and capecitabine |  | AUC | 5390 ng·h/mL |
| CC(C(=O)O)c1ccc(-c2ccccc2)c(F)c1 (stereo not drawn) |  | healthy volunteers, plasma | oral, 100 mg, geometric mean, together with: control beverage 250 mL |  | AUC | 56800 ng·h/mL |
| Cn1cnc2c(F)c(Nc3ccc(Br)cc3Cl)c(C(=O)NOCCO)cc21 |  | ESRD on hemodialysis, plasma | oral, 50 mg single dose, dosed after dialysis, LS mean |  | AUC | 1880 ng·h/mL |
| CC[C@@H](C)[C@@H]1NC(=O)[C@H]([C@@H](C)CC)NC(=O)[C@@H](Cc2c[nH]c3ccccc23)NC(=O)CCSCC[C@@H](C(=O)N(C)[C@H](CO)CCCN)NC(=O)[C@H](CC(N)=O)NC1=O |  | perfused human placental cotyledon | 1.2 µM, 1 to 120 min, maternal to fetal, together with: antipyrine 531 µM |  | AUC of placental transfer | 1250 ± 437 %·min |
| O=C1CCc2ccc(OCCCCN3CCN(c4cccc(Cl)c4Cl)CC3)cc2N1 |  | healthy Japanese men, CYP2D6 IM, plasma | oral, 3 mg aripiprazole single, together with: paroxetine 20 mg/day |  | AUC | 1700 ± 192 ng·h/mL |
| CC(C)(C)c1cc(C(C)(C)C)c(NC(=O)c2c[nH]c3ccccc3c2=O)cc1O |  | healthy subjects, plasma | oral, 50 mg once daily, together with: tezacaftor 25 mg, itraconazole 200 mg | reference: with over without itraconazole | AUC ratio | 15.6 |
| O=C(CCCCCCC(=O)Nc1ccccc1)NO |  | cancer patients, serum | oral, 600 mg, cycle 1 day 2, AUC 0-7 h, together with: flavopiridol 30 to 30 mg/m^2 |  | AUC | 4.35 µM·h |
| CNCc1ccc(-c2[nH]c3cc(F)cc4c3c2CCNC4=O)cc1 | noncompartmental analysis | patients, plasma | oral, 500 mg twice daily, day 1, together with: bevacizumab infusion |  | AUC at steady state | 16700 ± 4600 ng·h/mL |

A few entries again:
| SMILES | assay | system | setting | scale | endpoint | value |
| --- | --- | --- | --- | --- | --- | --- |
| O=C1CCc2ccc(OCCCCN3CCN(c4cccc(Cl)c4Cl)CC3)cc2N1 |  | healthy Japanese men, CYP2D6 IM, plasma | oral, 3 mg aripiprazole single, together with: paroxetine 20 mg/day |  | AUC | 1700 ± 192 ng·h/mL |
| CC(C)(C)c1cc(C(C)(C)C)c(NC(=O)c2c[nH]c3ccccc3c2=O)cc1O |  | healthy subjects, plasma | oral, 50 mg once daily, together with: tezacaftor 25 mg, itraconazole 200 mg | reference: with over without itraconazole | AUC ratio | 15.6 |
